Assay results of several laboratories.
Every numbered part comes from another study and shows a few of its results, in no order.
UniProt Q9HBY8, sequence (whole entry, looked up): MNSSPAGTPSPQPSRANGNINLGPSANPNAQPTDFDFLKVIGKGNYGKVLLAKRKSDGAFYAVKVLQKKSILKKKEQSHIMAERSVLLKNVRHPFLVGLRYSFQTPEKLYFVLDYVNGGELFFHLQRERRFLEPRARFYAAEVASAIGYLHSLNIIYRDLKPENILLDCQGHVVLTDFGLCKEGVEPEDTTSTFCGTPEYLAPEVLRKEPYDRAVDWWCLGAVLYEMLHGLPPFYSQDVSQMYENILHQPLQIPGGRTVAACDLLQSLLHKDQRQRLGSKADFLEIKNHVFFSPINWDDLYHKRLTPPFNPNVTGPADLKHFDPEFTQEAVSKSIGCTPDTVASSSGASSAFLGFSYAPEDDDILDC
UniProt P49760, sequence (whole entry, looked up): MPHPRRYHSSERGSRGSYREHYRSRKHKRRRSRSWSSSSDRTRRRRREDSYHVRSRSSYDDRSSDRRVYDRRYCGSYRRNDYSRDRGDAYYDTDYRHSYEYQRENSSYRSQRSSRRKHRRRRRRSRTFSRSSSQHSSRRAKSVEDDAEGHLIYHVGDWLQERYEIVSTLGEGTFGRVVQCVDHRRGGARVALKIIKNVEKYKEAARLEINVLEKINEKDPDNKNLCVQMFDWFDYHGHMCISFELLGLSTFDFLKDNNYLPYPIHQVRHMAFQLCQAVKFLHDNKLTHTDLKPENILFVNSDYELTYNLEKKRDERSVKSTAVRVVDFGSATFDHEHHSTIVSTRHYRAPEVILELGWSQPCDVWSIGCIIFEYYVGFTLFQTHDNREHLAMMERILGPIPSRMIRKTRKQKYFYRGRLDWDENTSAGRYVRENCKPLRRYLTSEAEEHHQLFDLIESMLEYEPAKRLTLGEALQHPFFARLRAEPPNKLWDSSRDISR
UniProt Q99759, sequence (whole entry, looked up): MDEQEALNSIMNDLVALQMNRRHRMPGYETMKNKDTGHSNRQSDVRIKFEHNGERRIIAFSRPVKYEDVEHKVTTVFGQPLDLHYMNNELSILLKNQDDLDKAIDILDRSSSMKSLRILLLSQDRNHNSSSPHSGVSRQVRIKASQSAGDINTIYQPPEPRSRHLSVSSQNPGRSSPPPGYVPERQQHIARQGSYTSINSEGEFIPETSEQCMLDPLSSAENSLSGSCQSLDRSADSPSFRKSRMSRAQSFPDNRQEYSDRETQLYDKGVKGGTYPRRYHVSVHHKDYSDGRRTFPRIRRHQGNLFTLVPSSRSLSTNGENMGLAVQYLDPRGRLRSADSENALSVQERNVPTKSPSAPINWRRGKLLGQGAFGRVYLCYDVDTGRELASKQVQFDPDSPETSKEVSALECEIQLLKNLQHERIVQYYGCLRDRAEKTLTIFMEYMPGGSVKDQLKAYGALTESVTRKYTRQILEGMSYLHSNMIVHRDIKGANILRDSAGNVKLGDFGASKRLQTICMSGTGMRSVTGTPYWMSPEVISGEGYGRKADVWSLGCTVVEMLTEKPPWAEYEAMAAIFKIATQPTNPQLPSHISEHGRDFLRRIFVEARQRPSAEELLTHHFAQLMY
UniProt P49674, sequence (whole entry, looked up): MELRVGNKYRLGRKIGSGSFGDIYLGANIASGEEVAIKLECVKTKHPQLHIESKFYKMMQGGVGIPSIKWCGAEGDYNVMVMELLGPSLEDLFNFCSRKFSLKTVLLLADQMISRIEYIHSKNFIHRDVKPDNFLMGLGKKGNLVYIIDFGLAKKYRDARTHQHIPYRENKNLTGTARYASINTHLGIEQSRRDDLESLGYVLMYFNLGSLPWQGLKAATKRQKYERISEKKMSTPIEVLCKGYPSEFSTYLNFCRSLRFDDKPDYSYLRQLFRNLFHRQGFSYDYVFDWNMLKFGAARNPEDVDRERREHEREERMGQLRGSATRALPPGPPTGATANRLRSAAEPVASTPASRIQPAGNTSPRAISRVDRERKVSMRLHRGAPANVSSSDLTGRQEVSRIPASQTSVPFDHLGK
UniProt O15146, sequence (whole entry, looked up): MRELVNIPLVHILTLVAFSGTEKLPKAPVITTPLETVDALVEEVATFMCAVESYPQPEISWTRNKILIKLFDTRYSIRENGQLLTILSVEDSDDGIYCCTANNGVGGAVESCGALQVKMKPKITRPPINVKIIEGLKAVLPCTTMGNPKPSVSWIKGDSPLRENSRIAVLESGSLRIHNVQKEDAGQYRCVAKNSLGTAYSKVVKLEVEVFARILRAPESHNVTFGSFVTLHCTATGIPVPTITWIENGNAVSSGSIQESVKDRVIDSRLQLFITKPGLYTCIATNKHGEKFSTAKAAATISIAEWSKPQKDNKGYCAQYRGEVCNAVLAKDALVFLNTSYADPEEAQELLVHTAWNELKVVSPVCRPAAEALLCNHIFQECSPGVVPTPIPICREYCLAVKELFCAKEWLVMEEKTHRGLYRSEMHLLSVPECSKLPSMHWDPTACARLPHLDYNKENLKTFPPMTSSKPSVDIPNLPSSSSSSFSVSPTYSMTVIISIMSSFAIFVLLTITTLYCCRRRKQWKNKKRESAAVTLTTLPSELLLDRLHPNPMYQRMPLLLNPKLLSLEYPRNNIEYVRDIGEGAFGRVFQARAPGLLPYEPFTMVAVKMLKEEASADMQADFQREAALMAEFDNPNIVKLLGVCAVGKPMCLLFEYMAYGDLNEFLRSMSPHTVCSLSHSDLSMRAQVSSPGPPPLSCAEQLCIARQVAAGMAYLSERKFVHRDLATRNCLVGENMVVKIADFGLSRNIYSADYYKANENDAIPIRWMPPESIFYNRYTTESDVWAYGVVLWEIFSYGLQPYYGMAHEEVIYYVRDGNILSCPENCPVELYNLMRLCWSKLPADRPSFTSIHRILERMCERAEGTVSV
UniProt Q04759, sequence (whole entry, looked up): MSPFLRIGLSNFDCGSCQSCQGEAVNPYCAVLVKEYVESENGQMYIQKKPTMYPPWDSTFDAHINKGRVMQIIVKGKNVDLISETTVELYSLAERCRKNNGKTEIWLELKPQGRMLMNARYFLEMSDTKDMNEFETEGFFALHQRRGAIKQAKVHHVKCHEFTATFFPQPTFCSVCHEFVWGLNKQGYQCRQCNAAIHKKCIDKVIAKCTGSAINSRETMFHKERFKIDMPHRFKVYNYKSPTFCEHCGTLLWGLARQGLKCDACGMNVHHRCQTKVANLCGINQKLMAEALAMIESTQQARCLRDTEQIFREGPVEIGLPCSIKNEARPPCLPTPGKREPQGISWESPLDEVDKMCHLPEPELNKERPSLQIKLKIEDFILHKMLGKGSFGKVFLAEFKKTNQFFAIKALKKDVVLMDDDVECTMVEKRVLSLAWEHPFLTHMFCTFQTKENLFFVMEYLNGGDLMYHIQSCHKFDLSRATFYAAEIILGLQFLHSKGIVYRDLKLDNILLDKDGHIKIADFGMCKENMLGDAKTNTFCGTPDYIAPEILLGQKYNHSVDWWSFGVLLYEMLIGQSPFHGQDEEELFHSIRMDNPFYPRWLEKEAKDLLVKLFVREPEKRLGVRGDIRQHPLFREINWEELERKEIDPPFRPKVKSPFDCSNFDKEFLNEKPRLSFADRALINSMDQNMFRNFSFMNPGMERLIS
UniProt P54753, sequence (whole entry, looked up): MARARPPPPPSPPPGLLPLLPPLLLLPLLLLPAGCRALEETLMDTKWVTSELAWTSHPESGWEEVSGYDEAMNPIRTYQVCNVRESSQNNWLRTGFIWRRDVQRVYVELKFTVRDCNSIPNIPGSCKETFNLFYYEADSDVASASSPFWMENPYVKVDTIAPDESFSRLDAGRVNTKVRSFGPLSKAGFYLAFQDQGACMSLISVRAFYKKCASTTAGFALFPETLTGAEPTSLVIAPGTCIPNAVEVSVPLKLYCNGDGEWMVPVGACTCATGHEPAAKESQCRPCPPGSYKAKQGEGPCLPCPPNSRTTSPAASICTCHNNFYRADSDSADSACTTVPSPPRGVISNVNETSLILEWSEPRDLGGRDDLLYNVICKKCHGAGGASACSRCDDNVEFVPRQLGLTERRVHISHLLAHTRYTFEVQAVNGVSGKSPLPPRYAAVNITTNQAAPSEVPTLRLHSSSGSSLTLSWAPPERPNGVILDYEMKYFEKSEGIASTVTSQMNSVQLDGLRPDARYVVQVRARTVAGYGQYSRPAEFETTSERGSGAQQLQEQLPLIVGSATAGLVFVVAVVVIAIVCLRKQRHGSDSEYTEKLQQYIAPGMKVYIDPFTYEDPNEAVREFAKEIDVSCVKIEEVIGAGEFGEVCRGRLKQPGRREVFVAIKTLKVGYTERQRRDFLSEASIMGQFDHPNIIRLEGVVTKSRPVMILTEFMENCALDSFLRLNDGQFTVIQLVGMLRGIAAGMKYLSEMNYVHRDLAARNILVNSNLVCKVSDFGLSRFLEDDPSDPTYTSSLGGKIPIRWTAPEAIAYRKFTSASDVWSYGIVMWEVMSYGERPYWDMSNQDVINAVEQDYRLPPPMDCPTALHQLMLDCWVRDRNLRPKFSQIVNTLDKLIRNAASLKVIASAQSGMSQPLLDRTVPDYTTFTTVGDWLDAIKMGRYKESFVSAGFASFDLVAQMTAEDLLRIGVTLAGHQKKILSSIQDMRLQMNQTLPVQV
UniProt Q14012, sequence (whole entry, looked up): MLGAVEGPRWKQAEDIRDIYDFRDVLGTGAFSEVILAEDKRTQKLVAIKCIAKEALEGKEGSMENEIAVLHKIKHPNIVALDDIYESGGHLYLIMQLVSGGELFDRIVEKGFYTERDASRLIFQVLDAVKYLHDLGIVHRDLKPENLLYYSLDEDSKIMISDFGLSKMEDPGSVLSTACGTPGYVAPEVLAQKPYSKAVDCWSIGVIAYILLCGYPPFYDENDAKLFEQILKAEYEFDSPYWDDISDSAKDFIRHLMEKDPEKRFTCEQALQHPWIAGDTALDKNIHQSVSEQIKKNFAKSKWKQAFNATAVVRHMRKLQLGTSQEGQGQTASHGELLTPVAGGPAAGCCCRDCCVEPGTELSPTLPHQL

Series 1
Structure (SMILES): CCCNC(=O)Nc1ccc(Oc2ncnc3cc(OC)c(OC)cc23)cc1Cl
Read-out: enzyme activity
Action: inhibitor
Tested at: 0.5 µM
Relative to: control
Endpoint: remaining activity
PRKCQ (Homo sapiens, UniProt Q04759): 102%
Cyclin-dependent kinase 2, with cyclin E (CDK2, Homo sapiens, UniProt P24941): 95.2%
CLK1 (Homo sapiens, UniProt P49759): 96.2%
MUSK (Homo sapiens, UniProt O15146): 101%
CAMK1 (Homo sapiens, UniProt Q14012): 96.7%
SRPK1 (Homo sapiens, UniProt Q96SB4): 102%
EPHA6 (Homo sapiens, UniProt Q9UF33): 77.7%
MAP3K20 (Homo sapiens, UniProt Q9NYL2): 103%
CAMKK1 (Homo sapiens, UniProt Q8N5S9): 93.1%
TEC (Homo sapiens, UniProt P42680): 119%
RPS6KA3 (Homo sapiens, UniProt P51812): 94.9%
PAK1 (Homo sapiens, UniProt Q13153): 93.8%
CLK2 (Homo sapiens, UniProt P49760): 89.5%
PAK6 (Homo sapiens, UniProt Q9NQU5): 106%
TYRO3 (Homo sapiens, UniProt Q06418): 102%
CSNK1D (Homo sapiens, UniProt P48730): 98.9%
IGF1R (Homo sapiens, UniProt P08069): 77%
JAK1 (Homo sapiens, UniProt P23458): 99.2%
CSNK1E (Homo sapiens, UniProt P49674): 78.5%
PRKCZ (Homo sapiens, UniProt Q05513): 102%
SIK2 (Homo sapiens, UniProt Q9H0K1): 101%
FLT1 (Homo sapiens, UniProt P17948): 65.2%
SGK2 (Homo sapiens, UniProt Q9HBY8): 97.1%

Series 2
SMILES: CCS(=O)(=O)c1cc2cc(C[C@](O)(CC(C)(C)c3ccc(F)cc3C(N)=O)C(F)(F)F)[nH]c2cn1
Read-out: cell-free assay
Technique: competition with immobilised ligand
Tested at: 1 µM
Endpoint: remaining binding
CSNK2A1 (Homo sapiens, UniProt P68400): 100%
CSNK1A1L (Homo sapiens, UniProt Q8N752): 100%
RIPK4 (Homo sapiens, UniProt P57078): 93%
CSF1R (Homo sapiens, UniProt P07333): 100%
MAP3K3 (Homo sapiens, UniProt Q99759): 92%
EGFR (Homo sapiens, UniProt P00533, del747-750/T751S): 100%
MAK (Homo sapiens, UniProt P20794): 100%
PIP5K1A (Homo sapiens, UniProt Q99755): 100%
HIPK3 (Homo sapiens, UniProt Q9H422): 100%
IRAK3 (Homo sapiens, UniProt Q9Y616): 96%
DCLK2 (Homo sapiens, UniProt Q8N568): 100%
ERN1 (Homo sapiens, UniProt O75460): 91%
EPHB3 (Homo sapiens, UniProt P54753): 100%

Series 3
Host: human
Matrix: microsomes or S9
Tested at: 2 µM
Time: 0.5 h
Endpoint: remaining compound
O=C1NC2c3ccccc3C(=O)N2c2ccccc21 (centres unmarked): 50.2%
O=C(CN1CCCC1Cn1cccn1)Nc1ccccc1-n1ccnc1 (centres unmarked): 71%
Cc1c2cnn(CC(=O)NC3CCCc4ccccc43)c(=O)c2c(C)n1Cc1cccc(Cl)c1 (centres unmarked): 0.685%
Cc1cc(Nc2cnccn2)cc(C2CCCN2C(=O)CC2(O)CCCCC2)n1 (centres unmarked): 15.3%
C[S+]([O-])c1sc(Br)c2c1C(=O)CC(C)(C)C2 (centres unmarked): 92.2%
CNC(=O)C1CCCC1NC(=O)N1CCOC(C)(c2cnn(C)c2)C1 (centres unmarked): > 100%

Series 4
SMILES: CC(C)n1cnc(-c2ccc(F)cc2)c1-c1ncc(C(=O)Nc2ccc(N3CCN(C)CC3)cc2)[nH]1
Technique: phase 2a clinical trial
Host: patients with idiopathic pulmonary fibrosis
Endpoint: patients with treatment-emergent adverse events
refers to: first degree atrioventricular block; 60 mg once daily, Grade 2: 0%
refers to: idiopathic pulmonary fibrosis; 30 mg once daily, Grade 5: 0%
refers to: left bundle branch block; 30 mg once daily, Grade 2: 0%
refers to: lumbar vertebral fracture; 60 mg once daily, Grade 1, maximum intensity: 0%
refers to: electrocardiogram high voltage; 60 mg once daily, Grade 3: 0%

A few entries again (series 1):
TEC (Homo sapiens, UniProt P42680): 119%
RPS6KA3 (Homo sapiens, UniProt P51812): 94.9%
PAK1 (Homo sapiens, UniProt Q13153): 93.8%
CLK2 (Homo sapiens, UniProt P49760): 89.5%
